# Published values collected from several papers.
# Protocols differ between the studies behind these lines. “And” joins repeats or separate records; there may be more than shown. Numbers after ± are the reported error.
# Glutamate receptor 2: Glutamate receptor 2 (Homo sapiens, UniProt P42262)
# WD repeat-containing protein 91 WD40 domain, residues 392–747: WD repeat-containing protein 91, WD40 domain, residues 392–747 (Homo sapiens, UniProt A4D1P6)
# Sequence of UniProt A4D1P6 (whole entry, looked up): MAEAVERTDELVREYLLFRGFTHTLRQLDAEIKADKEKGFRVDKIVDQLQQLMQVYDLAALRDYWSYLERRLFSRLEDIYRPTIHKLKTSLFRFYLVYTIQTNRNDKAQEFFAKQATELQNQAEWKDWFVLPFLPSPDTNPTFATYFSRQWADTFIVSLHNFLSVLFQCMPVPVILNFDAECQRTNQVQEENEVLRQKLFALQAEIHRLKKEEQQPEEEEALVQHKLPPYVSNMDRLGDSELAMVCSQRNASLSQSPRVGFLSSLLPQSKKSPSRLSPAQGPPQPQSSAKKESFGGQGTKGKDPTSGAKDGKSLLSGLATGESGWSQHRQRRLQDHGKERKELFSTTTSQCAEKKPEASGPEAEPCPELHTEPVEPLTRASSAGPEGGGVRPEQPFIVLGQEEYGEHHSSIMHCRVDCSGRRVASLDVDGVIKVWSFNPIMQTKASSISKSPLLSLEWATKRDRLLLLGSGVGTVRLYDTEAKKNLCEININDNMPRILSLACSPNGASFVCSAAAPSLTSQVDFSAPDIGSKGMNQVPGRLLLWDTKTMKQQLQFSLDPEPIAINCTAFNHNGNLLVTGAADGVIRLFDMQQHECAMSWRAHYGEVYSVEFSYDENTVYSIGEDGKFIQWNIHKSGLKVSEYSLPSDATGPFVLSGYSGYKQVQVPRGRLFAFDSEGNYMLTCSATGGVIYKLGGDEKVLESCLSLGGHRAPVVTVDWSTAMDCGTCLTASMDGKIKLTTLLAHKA
# Genome polyprotein NS3 helicase domain: Genome polyprotein, NS3 helicase domain (Hepatitis C virus genotype 1b, UniProt Q9WMX2)
# Sequence of UniProt Q64663 (whole entry, unmodified, looked up): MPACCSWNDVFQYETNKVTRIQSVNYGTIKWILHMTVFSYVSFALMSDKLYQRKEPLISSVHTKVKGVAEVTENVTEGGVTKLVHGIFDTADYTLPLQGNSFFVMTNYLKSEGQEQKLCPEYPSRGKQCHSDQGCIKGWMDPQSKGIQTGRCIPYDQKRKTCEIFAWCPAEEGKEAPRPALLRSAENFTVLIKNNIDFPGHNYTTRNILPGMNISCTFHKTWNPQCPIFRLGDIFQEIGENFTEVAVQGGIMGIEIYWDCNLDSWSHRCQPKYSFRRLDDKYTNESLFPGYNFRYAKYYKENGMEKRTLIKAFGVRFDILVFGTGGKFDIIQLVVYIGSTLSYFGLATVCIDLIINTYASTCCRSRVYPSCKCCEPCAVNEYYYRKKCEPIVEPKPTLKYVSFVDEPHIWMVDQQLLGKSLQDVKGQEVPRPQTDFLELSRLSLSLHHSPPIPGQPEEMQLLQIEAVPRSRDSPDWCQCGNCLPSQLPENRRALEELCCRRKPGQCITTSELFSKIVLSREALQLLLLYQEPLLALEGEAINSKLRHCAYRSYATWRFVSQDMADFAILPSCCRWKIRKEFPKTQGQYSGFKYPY
# Sequence of UniProt Q16774 (whole entry, unmodified, looked up): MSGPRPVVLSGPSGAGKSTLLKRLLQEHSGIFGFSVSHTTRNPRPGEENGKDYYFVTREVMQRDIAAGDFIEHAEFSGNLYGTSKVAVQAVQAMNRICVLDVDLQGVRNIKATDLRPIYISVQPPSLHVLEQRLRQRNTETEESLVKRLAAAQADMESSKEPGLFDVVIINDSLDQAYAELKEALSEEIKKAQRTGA
# Sequence of UniProt Q93015 (whole entry, looked up): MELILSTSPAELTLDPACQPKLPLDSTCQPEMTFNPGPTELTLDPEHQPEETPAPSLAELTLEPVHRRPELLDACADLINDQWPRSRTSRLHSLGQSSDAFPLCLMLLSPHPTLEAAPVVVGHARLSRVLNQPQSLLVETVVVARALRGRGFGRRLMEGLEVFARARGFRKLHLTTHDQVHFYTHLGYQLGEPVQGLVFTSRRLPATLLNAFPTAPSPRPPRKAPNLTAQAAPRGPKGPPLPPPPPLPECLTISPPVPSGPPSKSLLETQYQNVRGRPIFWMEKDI
Structure (SMILES),target,test,test system,conditions,how to read,endpoint,result
CCN1CCCC1CNC(=O)c1cc(S(N)(=O)=O)ccc1OC (centres unmarked),"D(3) dopamine receptor (DRD3, Homo sapiens, UniProt P35462)","β-arrestin recruitment, antagonist, BRET",,,,maximal inhibition,98 ± 2%
O=C1NC(=O)C(c2ccccc2)(c2ccccc2)N1,Glutamate receptor 2,"ion current, positive allosteric modulator, SyncroPatch patch clamp",HEK293,3 µM,,potentiation,93%
O=C(O)/C=C/c1ccc(O)c(O)c1,"Keap1 (Rattus norvegicus, UniProt P57790)",western blot,H9c2,120 µM,,protein level,inhibited
Cc1ccc(C(O)c2cn(-c3ccc(C(=O)N4CCC(C#N)CC4)cc3)nn2)cc1 (centres unmarked),"WD repeat-containing protein 91 WD40 domain, residues 392–747",SPR,,45 µM,,binding,-8% and -1%
Cc1ccc([N+](=O)[O-])cc1S(=O)(=O)N(C)C,Genome polyprotein NS3 helicase domain,"DNA binding, inhibitor",hepatitis C virus,"100 µM, together with: Cy5-dT15 DNA",,inhibition,0%
NCCCC(=O)O,"Sodium- and chloride-dependent taurine transporter (SLC6A6, Homo sapiens, UniProt P31641, L306A)","binding, microscale thermophoresis",,"7.81 µM, room temperature, together with: 50 nM labelled protein",higher = more binding,normalised MST signal,0.106
C=CC(=O)N1CCC(COCC(=O)N2CCN(c3nc(-c4cnc(N)nc4C(F)F)nc(N4CCOC[C@@H]4C)n3)CC2)CC1,"Calcium/calmodulin-dependent protein kinase type II subunit delta (CAMK2D, Homo sapiens, UniProt Q13557)",KINOMEscan,,1 µM,,remaining binding,100%
Nc1ncnc2c1ncn2[C@@H]1O[C@H](COP(=O)(O)O)[C@@H](O)[C@H]1O,Chimera-2 enzyme (Aplysia californica),"deamination, substrate, spectrophotometric",Tris-HCl buffer with NaCl,,,Km,108 ± 16 µM
CC12CC3CC(C)(C1)CC(N)(C3)C2,Glutamate receptor 2,"ion current, agonist, SyncroPatch patch clamp",HEK293,3 µM,,activation,5%
CN1CCN(c2cc(-c3ccncc3)c(-c3ccc4ccccc4c3)nn2)CC1,"Somatostatin receptor type 4 (SSTR4, Homo sapiens, UniProt P31391)","agonist, FLIPR",,12.5 µM,,activation,-1.2%
N[C@@H](CC(=O)O)C(=O)O,"N-alpha-acetyltransferase 80 (NAA80, Homo sapiens, UniProt Q93015)","substrate, DTNB",,"2 mM, 30 min, 37 °C, together with: acetyl-CoA 500 µM",,product formation,0.66 µM
CC[C@@H]1[C@H](F)C(=O)N[C@@H]1COc1nccc2cc(C(N)=O)c(OC)cc12,"Mitogen-activated protein kinase 9 (MAPK9, Homo sapiens, UniProt P45984)","ATP probe binding, KiNativ profiling, refers to: Lys1 probe site",THP-1 cell lysate,0.01 mM,,inhibition,-10%
O=C(O)c1cc(O)cc(C(=O)O)n1,Genome polyprotein NS3 helicase domain,"DNA binding, inhibitor",hepatitis C virus,"100 µM, together with: Cy5-dT15 DNA",,inhibition,0%
CC[C@H](C)[C@H](NC(=O)[C@H](CCSC)NC(=O)[C@H](CCSC)NC(=O)[C@H](C)NC(=O)[C@H](C)NC(=O)[C@H](Cc1ccc(O)cc1)NC(=O)[C@@H](NC(=O)[C@H](CCCCN)NC(=O)CNC(=O)[C@@H](NC(=O)[C@@H](NC(=O)[C@H](CCSC)NC(=O)[C@H](Cc1c[nH]cn1)NC(=O)CN)[C@@H](C)O)C(C)C)[C@@H](C)CC)C(=O)N[C@@H](C)C(=O)N[C@@H](CCC(=O)O)C(=O)N[C@@H](Cc1ccc(O)cc1)C(=O)N[C@@H](Cc1ccc(O)cc1)C(=O)N[C@@H](CCCNC(=N)N)C(=O)N[C@@H](CCC(N)=O)C(=O)N[C@@H](CO)C(=O)N[C@@H](CCCCN)C(=O)N[C@@H](C)C(=O)N[C@@H](CCCCN)C(=O)N[C@@H](CCCCN)C(=O)N[C@@H](CC(C)C)C(=O)N[C@@H](CCC(N)=O)C(=O)N[C@@H](C)C(=O)N[C@@H](CCSC)C(=O)N[C@@H](CCCNC(=N)N)C(=O)O,"Calmodulin-1, Ca2+-bound C-lobe (CALM1, Homo sapiens, UniProt P0DP23)","binding, isothermal titration calorimetry",,"pH 7.4, 15 °C, C-lobe, CaV2.1 IQ domain, together with: Ca2+",,ΔH,-7.52 ± 0.2 kcal/mol
COc1cc(/C=C/c2cc(/C=C/c3ccc(O)c(OC)c3)n(-c3cccc([N+](=O)[O-])c3)n2)ccc1O,haemin,"binding, isothermal titration calorimetry",,"pH 7.4, 37 °C",,ΔG,-9.4 ± 0.65 kcal/mol
CC1=C(CC(=O)O)c2cc(F)ccc2/C1=C\c1ccc([S+](C)[O-])cc1 (centres unmarked),Genome polyprotein NS3 helicase domain,"DNA binding, inhibitor",hepatitis C virus,"100 µM, together with: Cy5-dT15 DNA",,inhibition,1%
CC[C@H](C)[C@H](NC(=O)[C@H](C)NC(=O)[C@H](CCSC)NC(=O)[C@H](C)NC(=O)[C@H](C)NC(=O)[C@H](Cc1ccc(O)cc1)NC(=O)[C@@H](NC(=O)[C@H](CCCCN)NC(=O)CNC(=O)[C@@H](NC(=O)[C@@H](NC(=O)[C@H](CCSC)NC(=O)[C@H](Cc1c[nH]cn1)NC(=O)CN)[C@@H](C)O)C(C)C)[C@@H](C)CC)C(=O)N[C@@H](CCSC)C(=O)N[C@@H](CCC(=O)O)C(=O)N[C@@H](Cc1ccc(O)cc1)C(=O)N[C@@H](Cc1ccc(O)cc1)C(=O)N[C@@H](CCCNC(=N)N)C(=O)N[C@@H](CCC(N)=O)C(=O)N[C@@H](CO)C(=O)N[C@@H](CCCCN)C(=O)N[C@@H](C)C(=O)N[C@@H](CCCCN)C(=O)N[C@@H](CCCCN)C(=O)N[C@@H](CC(C)C)C(=O)N[C@@H](CCC(N)=O)C(=O)N[C@@H](C)C(=O)N[C@@H](CCSC)C(=O)N[C@@H](CCCNC(=N)N)C(=O)O,"Calmodulin-1, Ca2+-bound N-lobe (CALM1, Homo sapiens, UniProt P0DP23)","binding, isothermal titration calorimetry",,"N-lobe, CaV2.1 IQ domain, unit not given, together with: Ca2+",baseline: wild-type IQ domain,ΔΔG,-1.02
CCN(CCO)CCCC(C)Nc1ccnc2cc(Cl)ccc12 (centres unmarked),"Sodium channel protein type 5 subunit alpha (SCN5A, Homo sapiens, UniProt Q14524)","sodium current, whole-cell patch clamp",,"10 µM, without ATX-II",,half-inactivation voltage (V1/2),-75.8 mV and -83.7 mV and -92 mV
Nc1ncnc2c1ncn2[C@@H]1O[C@H](COP(=O)(O)OP(=O)(O)OP(=O)(O)O)[C@@H](O)[C@H]1O,"P2X purinoceptor 7 (P2rx7, Rattus norvegicus, UniProt Q64663, Q143A/R125A)","ion current, agonist, two-electrode voltage clamp",Xenopus laevis oocytes,1500 µM,baseline: highest concentration response,normalized current,1
CC(=O)c1cccc(OCc2cn(-c3ccc(C(=O)N4CCC(C#N)CC4)cc3)nn2)c1,"WD repeat-containing protein 91 WD40 domain, residues 392–747",SPR,,45 µM,,binding,46% and 61%
CNC(=O)[C@H]1O[C@@H](n2cnc3c(NCc4cccc(I)c4)nc(Cl)nc32)[C@H](O)[C@@H]1O,Genome polyprotein NS3 helicase domain,"DNA binding, inhibitor",hepatitis C virus,"100 µM, together with: Cy5-dT15 DNA",,inhibition,1%
CC(C)=CCc1cc2c(cc1O)O[C@H](c1ccc(O)cc1)CC2=O,"Estrogen receptor (ESR1, Homo sapiens, UniProt P03372)",array formation,PRL-HeLa,,baseline: EC50 ERβ over EC50 ERα,selectivity ratio,59.8
Cl.NO,Genome polyprotein NS3 helicase domain,"DNA binding, inhibitor",hepatitis C virus,"100 µM, together with: Cy5-dT15 DNA",,inhibition,1%
Nc1nc2c(ncn2[C@@H]2O[C@H](COP(=O)(O)O)[C@@H](O)[C@H]2O)c(=O)[nH]1,"GUK1 (Homo sapiens, UniProt Q16774, D103A)","enzyme activity, NADH-coupled",,62.5 µM,,reaction rate,7.26 s⁻¹ and 7.7 s⁻¹ and 6.87 s⁻¹
O=O,"Hypoxia-inducible factor 1-alpha inhibitor (HIF1AN, Homo sapiens, UniProt Q9NWT6, Q147A)","enzyme activity, substrate, rates, initial, MALDI-TOF MS",,"varied, pH 7.00, 37.0 °C, Q147A, together with: CTAD peptide 80 µM, 2-oxoglutarate 100 µM",,apparent kcat,0.517 ± 0.0833 s⁻¹
Cn1cc(-n2cnc3c(NCc4nc5cc(Cl)c(Cl)cc5[nH]4)nc(N4CCOCC4)nc32)cn1,"Cyclin-dependent kinase 12, with cyclin K (CDK12, Homo sapiens, UniProt Q9NYV4)","kinase activity, inhibitor, ADP-Glo",,0.0001 µM,,inhibition,14.7%
COc1cccc2c(Nc3ccc4[nH]c(C(=O)N/N=C/c5ccc(SC)cc5)cc4c3)cc(C)nc12,"Nuclear receptor subfamily 4 group A member 3, ligand-binding domain (Homo sapiens, UniProt Q92570)","reporter gene, Gal4 hybrid reporter",,1 µM,baseline: vehicle,activation,0.89 ± 0.12 fold
CSc1ccc(C(=O)c2[nH]c(=O)[nH]c2C)cc1,Genome polyprotein NS3 helicase domain,"DNA binding, inhibitor",hepatitis C virus,"100 µM, together with: Cy5-dT15 DNA",,inhibition,0%
COCCC(=O)N1CCC(Oc2ccccc2)C1 (centres unmarked),"WD repeat-containing protein 91 (Homo sapiens, UniProt A4D1P6)","binding, affinity selection mass spectrometry",,,baseline: other proteins in batch,log fold enrichment,-0.0241
